Measured values of several laboratories.
Parts stem from different laboratories: compare values within a part only.
UniProt P42336, sequence (whole entry, unmodified, looked up): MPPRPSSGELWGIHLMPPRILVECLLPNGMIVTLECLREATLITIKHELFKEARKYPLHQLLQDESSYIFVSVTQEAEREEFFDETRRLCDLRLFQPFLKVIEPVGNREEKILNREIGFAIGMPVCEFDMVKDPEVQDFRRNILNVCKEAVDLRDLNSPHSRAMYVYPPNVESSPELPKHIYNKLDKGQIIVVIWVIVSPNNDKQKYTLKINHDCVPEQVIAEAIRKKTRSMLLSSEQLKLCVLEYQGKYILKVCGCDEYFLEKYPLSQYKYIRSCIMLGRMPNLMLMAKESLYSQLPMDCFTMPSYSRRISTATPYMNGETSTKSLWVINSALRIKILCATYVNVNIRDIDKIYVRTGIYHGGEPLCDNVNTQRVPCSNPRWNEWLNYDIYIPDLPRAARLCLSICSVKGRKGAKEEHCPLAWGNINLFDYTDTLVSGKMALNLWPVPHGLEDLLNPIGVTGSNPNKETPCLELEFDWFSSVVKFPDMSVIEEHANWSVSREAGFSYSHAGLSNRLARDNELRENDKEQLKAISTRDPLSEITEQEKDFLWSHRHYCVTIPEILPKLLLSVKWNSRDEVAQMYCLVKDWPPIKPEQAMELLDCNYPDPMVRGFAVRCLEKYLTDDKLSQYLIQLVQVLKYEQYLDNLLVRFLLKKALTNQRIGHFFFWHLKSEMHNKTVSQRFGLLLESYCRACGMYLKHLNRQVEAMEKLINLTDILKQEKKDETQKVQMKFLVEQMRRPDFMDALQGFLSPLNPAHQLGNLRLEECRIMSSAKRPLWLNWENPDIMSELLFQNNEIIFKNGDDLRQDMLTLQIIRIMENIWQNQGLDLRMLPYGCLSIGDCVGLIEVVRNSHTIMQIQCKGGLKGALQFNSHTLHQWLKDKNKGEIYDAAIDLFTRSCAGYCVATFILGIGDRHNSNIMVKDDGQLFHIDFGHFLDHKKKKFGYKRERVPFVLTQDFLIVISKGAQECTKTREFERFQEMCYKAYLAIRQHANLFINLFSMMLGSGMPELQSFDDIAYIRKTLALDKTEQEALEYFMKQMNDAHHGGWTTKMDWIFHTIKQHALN
UniProt Q9BX84, sequence (whole entry, looked up): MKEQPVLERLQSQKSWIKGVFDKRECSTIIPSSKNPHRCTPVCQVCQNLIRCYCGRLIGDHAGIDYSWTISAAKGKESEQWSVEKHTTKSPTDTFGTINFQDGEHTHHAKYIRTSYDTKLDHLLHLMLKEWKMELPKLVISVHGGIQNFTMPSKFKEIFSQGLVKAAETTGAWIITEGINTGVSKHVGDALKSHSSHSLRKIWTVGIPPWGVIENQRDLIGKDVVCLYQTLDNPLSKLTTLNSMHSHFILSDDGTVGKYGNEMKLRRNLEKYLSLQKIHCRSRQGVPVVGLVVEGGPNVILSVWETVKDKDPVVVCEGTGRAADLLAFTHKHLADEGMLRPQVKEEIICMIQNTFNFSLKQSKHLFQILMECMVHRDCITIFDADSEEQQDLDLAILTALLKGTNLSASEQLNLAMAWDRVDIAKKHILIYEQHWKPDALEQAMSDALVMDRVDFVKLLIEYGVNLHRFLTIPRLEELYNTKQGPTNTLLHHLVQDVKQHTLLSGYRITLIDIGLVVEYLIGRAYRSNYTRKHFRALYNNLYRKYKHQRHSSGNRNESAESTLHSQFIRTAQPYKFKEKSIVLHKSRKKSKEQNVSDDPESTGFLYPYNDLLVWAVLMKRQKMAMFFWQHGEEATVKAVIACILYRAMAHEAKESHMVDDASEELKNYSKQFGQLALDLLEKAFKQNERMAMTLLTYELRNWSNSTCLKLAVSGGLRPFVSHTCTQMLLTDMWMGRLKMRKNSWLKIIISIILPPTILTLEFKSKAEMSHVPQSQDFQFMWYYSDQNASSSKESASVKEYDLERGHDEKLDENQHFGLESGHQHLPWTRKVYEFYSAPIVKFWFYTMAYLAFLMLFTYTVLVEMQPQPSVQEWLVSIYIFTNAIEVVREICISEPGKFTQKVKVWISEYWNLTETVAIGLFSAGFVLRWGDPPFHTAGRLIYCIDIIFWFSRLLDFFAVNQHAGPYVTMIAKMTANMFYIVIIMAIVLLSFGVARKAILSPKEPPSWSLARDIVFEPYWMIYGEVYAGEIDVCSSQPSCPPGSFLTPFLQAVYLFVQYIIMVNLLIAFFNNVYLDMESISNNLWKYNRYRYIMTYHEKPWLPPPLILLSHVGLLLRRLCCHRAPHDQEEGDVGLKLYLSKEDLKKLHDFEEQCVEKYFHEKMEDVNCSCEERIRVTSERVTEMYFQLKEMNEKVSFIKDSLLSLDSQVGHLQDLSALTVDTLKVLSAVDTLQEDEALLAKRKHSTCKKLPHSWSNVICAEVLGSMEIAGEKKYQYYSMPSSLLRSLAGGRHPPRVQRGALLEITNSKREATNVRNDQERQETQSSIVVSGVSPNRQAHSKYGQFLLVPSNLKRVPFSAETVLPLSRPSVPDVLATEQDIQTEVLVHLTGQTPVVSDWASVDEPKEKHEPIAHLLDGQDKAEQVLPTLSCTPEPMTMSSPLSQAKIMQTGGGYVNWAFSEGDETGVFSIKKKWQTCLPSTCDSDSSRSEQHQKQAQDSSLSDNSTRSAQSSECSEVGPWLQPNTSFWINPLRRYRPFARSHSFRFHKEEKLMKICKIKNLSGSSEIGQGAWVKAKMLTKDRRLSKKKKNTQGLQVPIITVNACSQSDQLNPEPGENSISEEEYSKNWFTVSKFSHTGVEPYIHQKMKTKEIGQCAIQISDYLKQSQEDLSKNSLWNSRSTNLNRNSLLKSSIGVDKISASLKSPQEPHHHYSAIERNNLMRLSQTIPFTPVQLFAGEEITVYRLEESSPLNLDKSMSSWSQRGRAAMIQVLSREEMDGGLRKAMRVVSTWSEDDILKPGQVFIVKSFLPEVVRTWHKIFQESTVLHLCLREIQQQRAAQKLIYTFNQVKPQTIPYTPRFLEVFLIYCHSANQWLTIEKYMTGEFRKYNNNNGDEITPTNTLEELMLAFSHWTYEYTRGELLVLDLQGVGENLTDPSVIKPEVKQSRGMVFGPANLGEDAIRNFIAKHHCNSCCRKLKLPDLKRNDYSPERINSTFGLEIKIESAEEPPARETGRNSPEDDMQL
UniProt Q9P2K8, sequence (whole entry, unmodified, looked up): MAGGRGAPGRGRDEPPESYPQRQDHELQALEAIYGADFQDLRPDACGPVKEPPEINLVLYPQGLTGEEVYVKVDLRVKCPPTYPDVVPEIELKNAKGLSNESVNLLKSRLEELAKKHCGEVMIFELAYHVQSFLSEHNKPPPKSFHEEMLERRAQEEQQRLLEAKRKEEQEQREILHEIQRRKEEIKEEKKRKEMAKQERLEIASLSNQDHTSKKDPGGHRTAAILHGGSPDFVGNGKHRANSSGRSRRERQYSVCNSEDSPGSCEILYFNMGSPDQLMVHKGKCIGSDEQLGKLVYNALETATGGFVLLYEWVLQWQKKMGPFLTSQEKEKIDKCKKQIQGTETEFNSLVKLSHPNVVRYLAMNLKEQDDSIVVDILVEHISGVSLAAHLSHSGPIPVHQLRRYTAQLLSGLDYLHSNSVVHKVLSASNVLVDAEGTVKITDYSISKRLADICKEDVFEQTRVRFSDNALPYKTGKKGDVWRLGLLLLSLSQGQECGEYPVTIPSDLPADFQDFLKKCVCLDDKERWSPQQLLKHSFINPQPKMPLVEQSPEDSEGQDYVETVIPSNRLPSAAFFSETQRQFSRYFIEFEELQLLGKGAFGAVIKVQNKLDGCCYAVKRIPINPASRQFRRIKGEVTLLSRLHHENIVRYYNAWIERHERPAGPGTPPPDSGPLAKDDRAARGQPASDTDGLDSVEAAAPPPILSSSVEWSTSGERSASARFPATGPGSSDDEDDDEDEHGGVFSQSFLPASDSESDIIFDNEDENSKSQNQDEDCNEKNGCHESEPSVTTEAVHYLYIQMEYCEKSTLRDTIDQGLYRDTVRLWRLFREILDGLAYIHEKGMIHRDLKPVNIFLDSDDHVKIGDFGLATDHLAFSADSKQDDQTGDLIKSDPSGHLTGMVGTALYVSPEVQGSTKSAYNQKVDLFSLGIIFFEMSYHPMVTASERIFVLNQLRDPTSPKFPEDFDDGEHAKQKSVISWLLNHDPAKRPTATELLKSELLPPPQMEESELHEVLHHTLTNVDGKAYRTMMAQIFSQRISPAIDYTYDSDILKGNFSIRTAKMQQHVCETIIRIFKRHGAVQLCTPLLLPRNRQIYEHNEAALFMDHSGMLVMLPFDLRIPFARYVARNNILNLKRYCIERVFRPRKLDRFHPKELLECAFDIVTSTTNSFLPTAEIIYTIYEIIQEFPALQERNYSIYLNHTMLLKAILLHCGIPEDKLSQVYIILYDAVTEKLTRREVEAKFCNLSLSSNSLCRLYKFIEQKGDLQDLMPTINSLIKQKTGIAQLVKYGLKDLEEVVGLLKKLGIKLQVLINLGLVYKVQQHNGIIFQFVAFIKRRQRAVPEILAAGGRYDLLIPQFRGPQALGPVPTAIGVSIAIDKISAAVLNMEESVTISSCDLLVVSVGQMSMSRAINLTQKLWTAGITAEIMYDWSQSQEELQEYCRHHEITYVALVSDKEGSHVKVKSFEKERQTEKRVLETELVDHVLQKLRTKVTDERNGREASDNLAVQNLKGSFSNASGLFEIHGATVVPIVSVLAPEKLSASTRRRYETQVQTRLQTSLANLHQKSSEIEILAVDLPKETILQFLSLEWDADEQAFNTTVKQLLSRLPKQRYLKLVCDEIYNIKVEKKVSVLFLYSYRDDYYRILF
UniProt Q9UEE5, sequence (whole entry, looked up): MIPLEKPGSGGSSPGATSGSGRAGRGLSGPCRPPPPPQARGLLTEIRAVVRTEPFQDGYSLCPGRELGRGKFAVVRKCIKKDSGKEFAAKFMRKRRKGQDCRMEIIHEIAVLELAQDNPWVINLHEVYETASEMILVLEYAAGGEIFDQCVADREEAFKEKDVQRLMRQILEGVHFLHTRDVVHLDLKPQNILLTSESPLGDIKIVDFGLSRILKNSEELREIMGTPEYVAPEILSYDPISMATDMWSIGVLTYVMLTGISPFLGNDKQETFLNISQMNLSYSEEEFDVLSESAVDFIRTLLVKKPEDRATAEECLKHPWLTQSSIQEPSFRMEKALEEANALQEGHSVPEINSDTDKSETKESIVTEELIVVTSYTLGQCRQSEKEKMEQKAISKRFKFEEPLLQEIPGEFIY

Sample 1 — observed: enzyme activity; action: inhibitor; tested at: 0.5 µM; baseline: control
Target: Serine/threonine-protein kinase 3 (STK3, Homo sapiens, UniProt Q13188)
Target sequence (Q13188 1-491): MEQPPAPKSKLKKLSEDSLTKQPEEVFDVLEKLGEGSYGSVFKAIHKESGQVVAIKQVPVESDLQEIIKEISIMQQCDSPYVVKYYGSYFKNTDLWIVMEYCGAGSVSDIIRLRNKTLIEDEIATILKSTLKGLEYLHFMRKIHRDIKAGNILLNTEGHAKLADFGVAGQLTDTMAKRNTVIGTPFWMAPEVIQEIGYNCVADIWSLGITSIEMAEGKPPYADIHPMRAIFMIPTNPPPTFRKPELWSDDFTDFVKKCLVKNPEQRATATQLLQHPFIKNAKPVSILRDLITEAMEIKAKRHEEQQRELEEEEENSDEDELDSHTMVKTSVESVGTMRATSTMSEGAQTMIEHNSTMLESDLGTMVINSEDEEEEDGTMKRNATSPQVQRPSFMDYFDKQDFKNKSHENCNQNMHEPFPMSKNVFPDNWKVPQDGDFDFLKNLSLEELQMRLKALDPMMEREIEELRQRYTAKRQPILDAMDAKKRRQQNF
`Oc1ccc(Nc2nc(-c3ccc(Cl)cc3)cs2)cc1` gave a remaining activity of 114%.
For `CC(=O)c1ccc(N2CCOCC2)cc1O`, the remaining activity was 98.9%.
`CC#CC(=O)Nc1cc2c(Nc3ccc(F)c(Cl)c3)ncnc2cn1` gave a remaining activity of 106%.
`O=S(=O)(NCCNC/C=C/c1ccc(Br)cc1)c1cccc2cnccc12` gave a remaining activity of 65.6%.
`CSc1nc(-c2ccnc(N[C@@H](C)c3ccccc3)c2)c(-c2ccc(F)cc2)[nH]1` (racemic) gave a remaining activity of 88.8%.
With `CCCC(=O)Oc1ccc2[nH]c(C(=O)c3cc4ccccc4[nH]3)cc2c1` the remaining activity was 87%.
With `NC(=O)c1ccc(N(C(N)=O)c2c(F)cccc2F)nc1-c1ccc(F)cc1F` the remaining activity was 94.1%.
The remaining activity of `CCc1[nH]c(-c2ccc(OC)cc2)nc1-c1ccncc1` is reported as 104%.
For `Nc1nccc(-c2c(-c3ccc(F)cc3)ncn2C2CCNCC2)n1`, the remaining activity was 103%.
For `Cc1ccc(NC2=CC(=O)c3sc(C)nc3C2=O)cc1`, the remaining activity was 105%.
The remaining activity of `Cc1cncc2cccc(S(=O)(=O)N3CCCN(C(=O)CN)C[C@@H]3C)c12` is reported as 104%.
The remaining activity of `Cc1cc(Nc2nc(-c3ccccc3)nc3ccccc23)n[nH]1` is reported as 58.5%.
`N#CC(=C(N)Sc1ccc(N)cc1)c1ccccc1C(F)(F)F` gave a remaining activity of 125%.
`O=C1NC(=O)C(c2c[nH]c3ccccc23)=C1c1c[nH]c2ccccc12` gave a remaining activity of 64.7%.
The remaining activity of `CC[n+]1c(/C=C/N(C)c2ccccc2)n(-c2ccccc2)c2ccc(-c3nc4ccccc4s3)cc21` is reported as 98.9%.
`O=C1Cc2c([nH]c3ccc([N+](=O)[O-])cc23)-c2ccccc2N1` gave a remaining activity of 70.3%.
`CC(C)(C)n1nc(Cc2cccc3ccccc23)c2c(N)ncnc21` gave a remaining activity of 82%.
`COc1ccc(S(=O)(=O)N(CCO)c2ccccc2CN(C)CC=Cc2ccc(Cl)cc2)cc1` has a remaining activity of 101%.
For `Nc1nc(Nc2ccc(S(N)(=O)=O)cc2)nn1C(=O)c1c(F)cccc1F`, the remaining activity was 34.3%.
`Fc1ccc(-c2nc3n(c2-c2ccncc2)CCS3)cc1` gave a remaining activity of 111%.
With `Nc1ncnc2c1cnn2-c1ccccc1` the remaining activity was 92.3%.
`COc1cc(Nc2c(C#N)cnc3cc(OCCCN4CCN(C)CC4)c(OC)cc23)c(Cl)cc1Cl` gave a remaining activity of 13.9%.

Sample 2
Structure (SMILES): COc1cc(C(=O)N2CCC(N3CCN(C)CC3)CC2)ccc1Nc1ncc2c(n1)N(C)c1ccccc1C(=O)N2C
The inhibition was -1% (SYK human; KiNativ profiling; human PBMC; 1 µM, DFG motif site, together with: ATP acyl phosphate probe).
It gave -18.5% for inhibition (mouse CaMK1α; probe labelling, KiNativ ATP probe; mouse brain lysate; 1 µM, LYS1 site LVAIkCIAK).
PKCe (mouse); probe labelling, KiNativ, refers to: LYS1 site peptide; brain tissue lysate (mouse); 0.1 µM, together with: ADP acyl-phosphate probe — inhibition: 6.1%.
The inhibition was 9.1% (NDR2 (human); probe labelling, KiNativ ATP probe; human PBMC lysate; concentration not given, LYS1 labelled site).
For PHKg2 (mouse); probe labelling, KiNativ, refers to: Lys1 site peptide; brain tissue lysate (mouse); 1 µM, together with: ATP acyl-phosphate probe: inhibition read 13.5%.
The inhibition was -20.3% (MST3 (mouse); KiNativ ADP probe; mouse brain tissue; 0.1 µM, probe site LYS1).
It gave 18.4% for inhibition (KHS1; 1 µM).

Sample 3 — tested at: 1 µM
SMILES: CN(C)c1ncnc(-c2ccc3nc(Nc4cc(CN5CCN(C(=O)CC(F)(F)F)CC5)ccn4)[nH]c3c2)c1Cl
The remaining binding was 100% (COQ8A (Homo sapiens, UniProt Q8NI60); cell-free assay, competition with immobilised ligand).
It gave 100% for remaining binding (CHEK2 (Homo sapiens, UniProt O96017); cell-free assay, competition with immobilised ligand).
For PIK3CA (Homo sapiens, UniProt P42336, I800L); cell-free assay, competition with immobilised ligand: remaining binding read 35%.
PIK3CA (Homo sapiens, UniProt P42336, M1043I); cell-free assay, competition with immobilised ligand — remaining binding: 56%.
eIF-2-alpha kinase GCN2, C-terminal kinase domain (EIF2AK4, Homo sapiens, UniProt Q9P2K8, S808G); cell-free assay, competition with immobilised ligand — remaining binding: 100%.
It gave 44% for remaining binding (Tyrosine-protein kinase ABL1, phosphorylated (ABL1, Homo sapiens, UniProt P00519, H396P); cell-free assay, competition with immobilised ligand).
The remaining binding was 100% (HIPK4 (Homo sapiens, UniProt Q8NE63); cell-free assay, competition with immobilised ligand).
The remaining binding was 94% (ACVRL1 (Homo sapiens, UniProt P37023); cell-free assay, competition with immobilised ligand).
It gave 98% for remaining binding (FGR (Homo sapiens, UniProt P09769); cell-free assay, competition with immobilised ligand).
The remaining binding was 75% (ULK1 (Homo sapiens, UniProt O75385); cell-free assay, competition with immobilised ligand).
The remaining binding was 100% (TRPM6 (Homo sapiens, UniProt Q9BX84); cell-free assay, competition with immobilised ligand).
It gave 34% for remaining binding (STK17A (Homo sapiens, UniProt Q9UEE5); cell-free assay, competition with immobilised ligand).
The remaining binding was 90% (MYLK3 (Homo sapiens, UniProt Q32MK0); cell-free assay, competition with immobilised ligand).
The remaining binding was 24% (TBK1 (Homo sapiens, UniProt Q9UHD2); binder, KINOMEscan competition binding; baseline: DMSO).

Sample 4 — species: mouse; medium: microsomes or S9; tested at: 2 µM; time: 0.5 h
The remaining compound of `COc1cccc(-c2noc(Cn3cnc4c(nnn4-c4ccc(F)cc4)c3=O)n2)c1` is reported as 63.8%.
The remaining compound of `O=C(CCc1ccccc1Cl)NCc1[nH]ncc1Br` is reported as 2.4%.
With `Cc1noc(C)c1S(=O)(=O)N1CCC(OCc2noc(C3CCCO3)n2)CC1` (stereo not drawn) the remaining compound was 2.65%.
With `Cc1ccccc1N(CC(=O)N1CCN(C/C=C/c2ccccc2)CC1)S(C)(=O)=O` the remaining compound was 3.87%.
With `CCC1(C(=O)O)CCCN(C(=O)Cc2nc(C)n[nH]2)C1` (stereo not drawn) the remaining compound was 84.1%.
The remaining compound of `CC(C)OC(=O)c1ccc(NC(=O)CCCC(=O)O)cc1` is reported as 97.7%.
`COc1ccc(/C=N/n2cnnc2)cc1Br` has a remaining compound of 34.2%.
`CCOC(=O)C1=C(NC(=O)CSc2nnc(-c3cc(C)on3)o2)SC2CCCCC12` (stereo not drawn) gave a remaining compound of 86.2%.

Some of these lines once more (sample 4):
The remaining compound of `O=C(CCc1ccccc1Cl)NCc1[nH]ncc1Br` is reported as 2.4%.
With `CCC1(C(=O)O)CCCN(C(=O)Cc2nc(C)n[nH]2)C1` (stereo not drawn) the remaining compound was 84.1%.
The remaining compound of `COc1cccc(-c2noc(Cn3cnc4c(nnn4-c4ccc(F)cc4)c3=O)n2)c1` is reported as 63.8%.
With `Cc1noc(C)c1S(=O)(=O)N1CCC(OCc2noc(C3CCCO3)n2)CC1` (stereo not drawn) the remaining compound was 2.65%.
`CCOC(=O)C1=C(NC(=O)CSc2nnc(-c3cc(C)on3)o2)SC2CCCCC12` (stereo not drawn) gave a remaining compound of 86.2%.
